Experimental data gathered from unrelated publications.
Several values in a cell are separate wells, animals, samples, runs or records.
Target: Mitogen-activated protein kinase 1 (MAPK1, Homo sapiens, UniProt P28482)
UniProt P28482, sequence (whole entry, looked up): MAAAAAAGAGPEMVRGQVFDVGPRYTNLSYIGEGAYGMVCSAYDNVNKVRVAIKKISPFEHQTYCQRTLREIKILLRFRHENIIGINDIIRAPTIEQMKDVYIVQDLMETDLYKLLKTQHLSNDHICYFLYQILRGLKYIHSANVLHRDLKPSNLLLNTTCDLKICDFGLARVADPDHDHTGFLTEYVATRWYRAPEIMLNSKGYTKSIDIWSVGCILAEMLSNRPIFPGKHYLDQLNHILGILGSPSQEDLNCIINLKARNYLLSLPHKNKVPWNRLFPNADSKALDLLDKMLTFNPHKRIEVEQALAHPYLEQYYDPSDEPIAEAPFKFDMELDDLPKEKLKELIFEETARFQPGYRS

Compound	assay	conditions	how to read	measurement	value
COc1cc(F)ccc1-c1ncnc(Nc2cccc(C[S@](C)(=N)=O)c2)n1	kinase activity	10 µM, added: 10 µM ATP	–	remaining activity	92%
C=CC(=O)N1CCC[C@@H](n2nc(-c3ccc(Oc4ccccc4)cc3)c3c(N)ncnc32)C1	–	1 µM	–	remaining activity	62.7%
CN1CC(Oc2cnc(C#N)cc2-c2ccn3nc(NC(=O)C4CC4)cc3c2)C1	inhibitor, KinaseProfiler panel	1 µM	–	inhibition	-8%
O=C(Nc1ccc2[nH]nc(-c3ccncc3)c2c1)[C@@H]1CCN(CC(=O)N2CCN(c3ccc(-c4ncccn4)cc3)CC2)C1	kinase activity, Kinase-Glo luminescence	concentration not given	–	normalized luminescence	1.19 and 1.15 and 1.42
c1cnc2ccc(Nc3nc(NC4CC4)c4nc[nH]c4n3)cc2c1	kinase activity, inhibitor, SelectScreen kinase profiling	1 µM	baseline: control	remaining activity	85%
COc1cc(-c2cncc3c2CN(C)Cc2cc(N4CCNCC4)ccc2-3)cc(OC)c1OC	kinase activity	1 µM, human enzyme, added: ATP 10 µM	baseline: DMSO control	remaining activity	110%
O=C1NC(=O)/C(=C/c2ccc(-c3ccc(F)cc3O)o2)S1	enzyme activity	10 µM	–	remaining activity	104%
COCCNc1nc2ccc(C#CC3(O)CCCCC3)cc2n1-c1ccnc(N)n1	enzyme activity, inhibitor, Z'-LYTE	1 µM	baseline: no-inhibitor control	remaining kinase activity	11.3%

Some of these lines once more:
Compound	assay	conditions	how to read	measurement	value
COc1cc(F)ccc1-c1ncnc(Nc2cccc(C[S@](C)(=N)=O)c2)n1	kinase activity	10 µM, added: 10 µM ATP	–	remaining activity	92%
